Measurements gathered from unrelated publications.
Parts stem from different laboratories: compare values within a part only. “And” joins repeats or separate records; there may be more than shown.
UniProt O96017, sequence (whole entry, looked up): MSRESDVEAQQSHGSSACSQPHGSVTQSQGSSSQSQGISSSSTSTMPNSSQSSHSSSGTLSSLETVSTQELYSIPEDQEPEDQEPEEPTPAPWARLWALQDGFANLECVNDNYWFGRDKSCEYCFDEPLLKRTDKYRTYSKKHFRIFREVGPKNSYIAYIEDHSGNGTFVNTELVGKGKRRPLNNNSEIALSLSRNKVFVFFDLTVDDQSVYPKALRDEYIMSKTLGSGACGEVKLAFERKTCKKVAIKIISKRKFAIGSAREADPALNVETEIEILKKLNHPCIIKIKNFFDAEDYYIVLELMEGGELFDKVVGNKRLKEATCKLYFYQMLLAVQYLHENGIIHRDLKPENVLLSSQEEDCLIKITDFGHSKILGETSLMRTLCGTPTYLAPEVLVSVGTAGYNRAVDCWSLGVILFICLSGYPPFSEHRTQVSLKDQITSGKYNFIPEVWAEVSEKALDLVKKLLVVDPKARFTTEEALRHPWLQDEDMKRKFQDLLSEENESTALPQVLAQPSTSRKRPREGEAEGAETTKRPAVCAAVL
UniProt O00444, sequence (whole entry, looked up): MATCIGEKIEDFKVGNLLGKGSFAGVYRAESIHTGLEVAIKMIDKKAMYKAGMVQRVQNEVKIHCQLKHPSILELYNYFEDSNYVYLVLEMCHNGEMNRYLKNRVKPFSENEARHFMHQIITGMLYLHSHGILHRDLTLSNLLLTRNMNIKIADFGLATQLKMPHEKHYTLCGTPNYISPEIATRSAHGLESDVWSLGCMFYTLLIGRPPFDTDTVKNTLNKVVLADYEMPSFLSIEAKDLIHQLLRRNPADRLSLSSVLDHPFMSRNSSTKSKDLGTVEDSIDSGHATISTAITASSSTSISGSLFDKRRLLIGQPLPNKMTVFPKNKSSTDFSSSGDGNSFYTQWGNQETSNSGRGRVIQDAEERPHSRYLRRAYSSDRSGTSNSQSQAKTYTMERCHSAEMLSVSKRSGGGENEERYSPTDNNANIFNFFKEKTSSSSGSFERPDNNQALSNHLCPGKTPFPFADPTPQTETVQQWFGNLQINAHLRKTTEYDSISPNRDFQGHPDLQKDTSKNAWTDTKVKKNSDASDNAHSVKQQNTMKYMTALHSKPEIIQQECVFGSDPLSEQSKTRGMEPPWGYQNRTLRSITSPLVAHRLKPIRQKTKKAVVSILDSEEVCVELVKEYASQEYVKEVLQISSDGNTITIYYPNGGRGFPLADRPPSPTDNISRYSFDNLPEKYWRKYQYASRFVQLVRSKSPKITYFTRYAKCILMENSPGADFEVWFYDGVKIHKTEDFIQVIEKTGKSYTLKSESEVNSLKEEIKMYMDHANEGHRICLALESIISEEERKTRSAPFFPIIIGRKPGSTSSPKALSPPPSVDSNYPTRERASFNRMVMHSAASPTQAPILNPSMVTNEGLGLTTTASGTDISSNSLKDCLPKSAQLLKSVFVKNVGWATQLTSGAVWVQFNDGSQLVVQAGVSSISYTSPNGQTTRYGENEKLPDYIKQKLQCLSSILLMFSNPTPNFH
UniProt O94804, sequence (whole entry, looked up): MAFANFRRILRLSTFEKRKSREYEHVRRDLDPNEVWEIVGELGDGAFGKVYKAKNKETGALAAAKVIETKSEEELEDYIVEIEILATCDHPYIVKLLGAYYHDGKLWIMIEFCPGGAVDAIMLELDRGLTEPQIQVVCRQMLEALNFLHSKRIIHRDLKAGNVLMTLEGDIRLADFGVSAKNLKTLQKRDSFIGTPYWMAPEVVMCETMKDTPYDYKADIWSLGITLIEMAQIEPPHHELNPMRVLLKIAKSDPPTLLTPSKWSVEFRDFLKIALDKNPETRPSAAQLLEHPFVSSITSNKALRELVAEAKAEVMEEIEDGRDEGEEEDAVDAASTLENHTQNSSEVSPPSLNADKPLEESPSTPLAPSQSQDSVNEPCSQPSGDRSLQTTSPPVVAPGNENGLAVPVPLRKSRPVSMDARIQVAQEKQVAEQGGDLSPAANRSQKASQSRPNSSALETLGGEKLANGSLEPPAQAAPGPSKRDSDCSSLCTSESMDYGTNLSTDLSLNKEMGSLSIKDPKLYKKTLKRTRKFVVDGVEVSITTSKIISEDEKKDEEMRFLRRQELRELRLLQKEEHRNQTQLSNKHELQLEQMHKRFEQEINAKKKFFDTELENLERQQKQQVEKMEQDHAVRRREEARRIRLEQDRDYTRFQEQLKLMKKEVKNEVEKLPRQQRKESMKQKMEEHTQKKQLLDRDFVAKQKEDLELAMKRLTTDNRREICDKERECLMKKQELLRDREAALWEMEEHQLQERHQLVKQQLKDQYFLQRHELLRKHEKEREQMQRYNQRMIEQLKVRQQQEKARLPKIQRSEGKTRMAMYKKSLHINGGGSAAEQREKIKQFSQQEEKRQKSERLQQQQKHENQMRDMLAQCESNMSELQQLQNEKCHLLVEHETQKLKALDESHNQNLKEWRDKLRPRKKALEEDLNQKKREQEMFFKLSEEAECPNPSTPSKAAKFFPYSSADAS
UniProt Q9BX84, sequence (whole entry, looked up): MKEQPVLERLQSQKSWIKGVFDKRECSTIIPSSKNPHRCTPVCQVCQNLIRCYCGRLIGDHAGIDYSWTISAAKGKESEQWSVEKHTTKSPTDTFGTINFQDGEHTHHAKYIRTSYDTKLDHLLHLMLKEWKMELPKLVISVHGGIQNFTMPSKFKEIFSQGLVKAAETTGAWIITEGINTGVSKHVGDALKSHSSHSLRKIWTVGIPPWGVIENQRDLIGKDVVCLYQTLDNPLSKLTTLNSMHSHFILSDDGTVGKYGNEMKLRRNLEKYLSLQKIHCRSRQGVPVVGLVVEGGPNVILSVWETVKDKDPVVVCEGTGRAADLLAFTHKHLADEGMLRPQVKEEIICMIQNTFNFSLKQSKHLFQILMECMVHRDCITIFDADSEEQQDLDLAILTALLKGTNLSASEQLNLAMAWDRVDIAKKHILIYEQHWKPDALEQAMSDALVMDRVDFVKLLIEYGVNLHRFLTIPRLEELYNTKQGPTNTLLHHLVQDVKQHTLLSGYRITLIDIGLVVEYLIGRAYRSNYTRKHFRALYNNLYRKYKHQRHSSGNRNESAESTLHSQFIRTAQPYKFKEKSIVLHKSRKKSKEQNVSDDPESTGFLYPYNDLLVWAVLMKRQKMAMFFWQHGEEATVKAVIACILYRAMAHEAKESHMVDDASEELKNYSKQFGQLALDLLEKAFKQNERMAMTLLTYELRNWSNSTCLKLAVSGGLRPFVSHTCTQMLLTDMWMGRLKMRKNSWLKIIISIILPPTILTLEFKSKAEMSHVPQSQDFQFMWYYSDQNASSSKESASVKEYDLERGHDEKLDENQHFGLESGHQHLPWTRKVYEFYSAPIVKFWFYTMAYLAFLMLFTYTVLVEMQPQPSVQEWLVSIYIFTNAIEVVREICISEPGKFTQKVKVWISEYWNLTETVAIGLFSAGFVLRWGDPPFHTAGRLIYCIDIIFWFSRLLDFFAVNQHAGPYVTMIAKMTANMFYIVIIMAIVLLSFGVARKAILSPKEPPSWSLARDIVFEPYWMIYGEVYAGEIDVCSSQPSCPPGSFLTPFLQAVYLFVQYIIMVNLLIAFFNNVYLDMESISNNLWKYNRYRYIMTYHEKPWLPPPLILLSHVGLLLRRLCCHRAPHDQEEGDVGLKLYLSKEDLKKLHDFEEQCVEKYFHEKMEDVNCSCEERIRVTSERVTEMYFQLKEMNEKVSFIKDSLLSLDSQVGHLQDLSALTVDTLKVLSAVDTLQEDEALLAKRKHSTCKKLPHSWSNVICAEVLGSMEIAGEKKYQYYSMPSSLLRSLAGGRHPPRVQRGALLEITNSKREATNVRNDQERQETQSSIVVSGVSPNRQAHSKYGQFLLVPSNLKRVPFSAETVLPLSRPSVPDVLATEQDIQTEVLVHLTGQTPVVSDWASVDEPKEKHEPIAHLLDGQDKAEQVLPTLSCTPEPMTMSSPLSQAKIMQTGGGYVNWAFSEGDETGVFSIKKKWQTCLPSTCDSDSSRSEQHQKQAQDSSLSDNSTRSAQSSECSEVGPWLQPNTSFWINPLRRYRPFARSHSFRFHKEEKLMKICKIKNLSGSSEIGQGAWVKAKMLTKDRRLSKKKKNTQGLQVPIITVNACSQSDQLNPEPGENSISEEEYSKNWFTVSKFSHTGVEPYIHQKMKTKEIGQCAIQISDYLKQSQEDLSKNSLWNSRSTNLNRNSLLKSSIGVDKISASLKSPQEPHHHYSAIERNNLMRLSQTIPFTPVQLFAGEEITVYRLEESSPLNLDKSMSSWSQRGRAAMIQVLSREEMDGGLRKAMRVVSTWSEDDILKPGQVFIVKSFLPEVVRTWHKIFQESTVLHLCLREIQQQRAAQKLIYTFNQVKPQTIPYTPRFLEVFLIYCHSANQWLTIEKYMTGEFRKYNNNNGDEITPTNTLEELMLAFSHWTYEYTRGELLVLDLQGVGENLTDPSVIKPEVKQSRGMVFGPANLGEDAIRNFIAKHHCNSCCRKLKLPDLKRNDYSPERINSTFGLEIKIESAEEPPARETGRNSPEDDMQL
UniProt Q13557, sequence (whole entry, looked up): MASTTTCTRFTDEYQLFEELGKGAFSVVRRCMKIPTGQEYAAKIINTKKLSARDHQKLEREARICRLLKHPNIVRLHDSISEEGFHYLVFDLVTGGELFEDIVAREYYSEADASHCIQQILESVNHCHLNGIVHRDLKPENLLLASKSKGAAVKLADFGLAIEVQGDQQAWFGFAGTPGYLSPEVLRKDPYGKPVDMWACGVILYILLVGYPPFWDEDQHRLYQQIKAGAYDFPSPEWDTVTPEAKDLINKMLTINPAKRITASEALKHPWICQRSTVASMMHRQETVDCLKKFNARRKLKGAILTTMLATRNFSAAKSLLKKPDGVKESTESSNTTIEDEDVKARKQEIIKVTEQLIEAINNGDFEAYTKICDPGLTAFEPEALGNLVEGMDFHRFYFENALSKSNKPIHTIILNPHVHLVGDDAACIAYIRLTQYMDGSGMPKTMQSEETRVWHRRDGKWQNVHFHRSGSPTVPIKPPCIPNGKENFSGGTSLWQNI

Sample 1
SMILES: CC(C)n1cnc2c(Nc3cccc(Cl)c3)nc(NCCO)nc21
Observed: enzyme activity
Action: inhibitor
Tested at: 0.5 µM
Baseline: control
Endpoint: remaining activity
Inhibitor of nuclear factor kappa-B kinase subunit epsilon (IKBKE, Homo sapiens, UniProt Q14164): 97.6%
Death-associated protein kinase 1 (DAPK1, Homo sapiens, UniProt P53355): 78.8%
Mitogen-activated protein kinase kinase kinase 3 (MAP3K3, Homo sapiens, UniProt Q99759): 97.4%
Protein kinase C beta type, isoform beta-I (PRKCB, Homo sapiens, UniProt P05771): 102%
Serine/threonine-protein kinase 10 (STK10, Homo sapiens, UniProt O94804): 86.9%
cAMP-dependent protein kinase catalytic subunit alpha (PRKACA, Homo sapiens, UniProt P17612): 99.5%
Calcium/calmodulin-dependent protein kinase kinase 2 (CAMKK2, Homo sapiens, UniProt Q96RR4): 68.2%
G protein-coupled receptor kinase 3 (GRK3, Homo sapiens, UniProt P35626): 90.5%
Death-associated protein kinase 2 (DAPK2, Homo sapiens, UniProt Q9UIK4): 92.8%
cGMP-dependent protein kinase 1, isoform beta (PRKG1, Homo sapiens, UniProt Q13976): 98.1%
Serine/threonine-protein kinase Chk2 (CHEK2, Homo sapiens, UniProt O96017): 78.5%
Cyclin-dependent kinase 5, with p25 (CDK5, Homo sapiens, UniProt Q00535): 26.2%
Mitogen-activated protein kinase 9 (MAPK9, Homo sapiens, UniProt P45984): 101%
STE20/SPS1-related proline-alanine-rich protein kinase (STK39, Homo sapiens, UniProt Q9UEW8): 100%
Serine/threonine-protein kinase Nek2 (NEK2, Homo sapiens, UniProt P51955): 97.6%
Protein kinase C alpha type (PRKCA, Homo sapiens, UniProt P17252): 78.6%
Serine/threonine-protein kinase STK11 (STK11, Homo sapiens, UniProt Q15831): 76.1%
Tyrosine-protein kinase Lyn, isoform B (LYN, Homo sapiens, UniProt P07948): 94.6%
Calcium/calmodulin-dependent protein kinase type II subunit delta (CAMK2D, Homo sapiens, UniProt Q13557): 84.2%
Serine/threonine-protein kinase OSR1 (OXSR1, Homo sapiens, UniProt O95747): 97.8%
Inhibitor of nuclear factor kappa-B kinase subunit beta (IKBKB, Homo sapiens, UniProt O14920): 102%
Cyclin-dependent kinase 4, with cyclin D1 (CDK4, Homo sapiens, UniProt P11802): 77%
TGF-beta receptor type-2 (TGFBR2, Homo sapiens, UniProt P37173): 70.2%

Sample 2
SMILES: NS(=O)(=O)c1cc(NC(=O)C2(c3ccccc3Cl)CC2)ccc1Oc1cccc(Cl)c1
Tested at: 1 µM
Endpoint: remaining binding
Serine/threonine-protein kinase 17A (STK17A, Homo sapiens, UniProt Q9UEE5); cell-free assay, competition with immobilised ligand: 85%
Ephrin type-A receptor 4 (EPHA4, Homo sapiens, UniProt P54764); cell-free assay, competition with immobilised ligand: 100%
Casein kinase I isoform gamma-3 (CSNK1G3, Homo sapiens, UniProt Q9Y6M4); cell-free assay, competition with immobilised ligand: 100%
Serine/threonine-protein kinase 32B (STK32B, Homo sapiens, UniProt Q9NY57); cell-free assay, competition with immobilised ligand: 91%
Phosphatidylinositol 4,5-bisphosphate 3-kinase catalytic subunit alpha isoform (PIK3CA, Homo sapiens, UniProt P42336, M1043I); cell-free assay, competition with immobilised ligand: 98%
Phosphatidylinositol 5-phosphate 4-kinase type-2 gamma (PIP4K2C, Homo sapiens, UniProt Q8TBX8); cell-free assay, competition with immobilised ligand: 62%
NT-3 growth factor receptor (NTRK3, Homo sapiens, UniProt Q16288); cell-free assay, competition with immobilised ligand: 88%
Calcium/calmodulin-dependent protein kinase type 1G (CAMK1G, Homo sapiens, UniProt Q96NX5); cell-free assay, competition with immobilised ligand: 100%
Myosin light chain kinase (MYLK3, Homo sapiens, UniProt Q32MK0); cell-free assay, competition with immobilised ligand: 89%
Serine/threonine-protein kinase BRSK2 (BRSK2, Homo sapiens, UniProt Q8IWQ3); cell-free assay, competition with immobilised ligand: 87%
Mitogen-activated protein kinase 1 (MAPK1, Homo sapiens, UniProt P28482); cell-free assay, competition with immobilised ligand: 75%
Serine/threonine-protein kinase PLK4 (PLK4, Homo sapiens, UniProt O00444); cell-free assay, competition with immobilised ligand: 87%
Phosphatidylinositol 3-kinase C2 domain-containing subunit gamma (PIK3C2G, Homo sapiens, UniProt O75747); cell-free assay, competition with immobilised ligand: 100%
Calcium/calmodulin-dependent protein kinase type II subunit gamma (CAMK2G, Homo sapiens, UniProt Q13555); cell-free assay, competition with immobilised ligand: 93%
Dual specificity testis-specific protein kinase 1 (TESK1, Homo sapiens, UniProt Q15569); cell-free assay, competition with immobilised ligand: 100%
Serine/threonine-protein kinase MRCK gamma (CDC42BPG, Homo sapiens, UniProt Q6DT37); competition binding: 82%
Leucine-rich repeat serine/threonine-protein kinase 2 (LRRK2, Homo sapiens, UniProt Q5S007); cell-free assay, competition with immobilised ligand: 89%
Phosphatidylinositol 4-phosphate 5-kinase type-1 gamma (PIP5K1C, Homo sapiens, UniProt O60331); cell-free assay, competition with immobilised ligand: 48%
Rhodopsin kinase GRK1 (GRK1, Homo sapiens, UniProt Q15835); cell-free assay, competition with immobilised ligand: 72%
Serine/threonine-protein kinase Chk2 (CHEK2, Homo sapiens, UniProt O96017); cell-free assay, competition with immobilised ligand: 100%
Cyclin-dependent kinase-like 5 (CDKL5, Homo sapiens, UniProt O76039); binding, competition with immobilised ligand: 95%
ALK tyrosine kinase receptor (ALK, Homo sapiens, UniProt Q9UM73, L1196M); cell-free assay, competition with immobilised ligand: 85%
Fibroblast growth factor receptor 3 (FGFR3, Homo sapiens, UniProt P22607); cell-free assay, competition with immobilised ligand: 100%
Transient receptor potential cation channel subfamily M member 6 (TRPM6, Homo sapiens, UniProt Q9BX84); cell-free assay, competition with immobilised ligand: 95%
Tyrosine-protein kinase ABL1, non-phosphorylated (ABL1, Homo sapiens, UniProt P00519, F317I); binding, competition with immobilised ligand: 96%

Sample 3
Species: human
Matrix: microsomes or S9
Tested at: 2 µM
Time: 0.5 h
Endpoint: remaining compound
COc1cccc2c1Oc1ccsc1C=C2C#N: 80%
CN(C)c1ccc2c(c1)C(c1ccccc1)CC2=O (stereo not shown): 0.884%
COCCNC(=O)NC1(c2nc(C)no2)CCCCC1: 86.8%
COc1ccccc1NC(=O)C1c2ccccc2Oc2ccccc21: 25%
O=C(C1CC(=O)N(C2CCCC2)C1)N1CCC(c2nnc3n2CCNC3)CC1 (stereo not shown): 72.1%
COC(=O)C1=C(\N2CCOCC2)CCCC/C=C\1C(=O)OC: 62.3%
CS(=O)(=O)NCCOc1ccccc1-c1ccccc1: > 99%
Cc1cc(C#N)cc(C(=O)c2c(C(C)C)c(=O)[nH]c(=O)n2Cc2cc(F)nc(OCCOCc3ccccc3)c2)c1: 0.842%
NC(=O)Cc1csc(NC(=O)CCNC2=NS(=O)(=O)c3ccccc32)n1: 83%
Fc1cnc(NC2CCN(C3CCOC3)CC2)nc1 (stereo not shown): 98.4%
CN1N=C(c2ccc(-n3cncn3)cc2)CC1c1cnn(C)c1 (stereo not shown): 96.9%
CCCc1c(C)[nH]c2[nH]n(-c3ccccc3)c(=O)c2c1=O: 79.3%
Cc1ccc(S(=O)(=O)N2CCCC(C(=O)Nc3ccc4c(c3)OCCO4)C2)cc1 (stereo not shown): 65%

Sample 4
SMILES: CC(C)(C(=O)O)[C@H](NC(=O)Cc1cccc(I)c1)c1ccc2oc(=O)[nH]c2c1
Method: Incucyte 3D growth
Tested at: 30 µM
Direction: higher = more growth
Endpoint: spheroid area
PC-9; 162 h: 1.27e+09 a.u. and 1.33e+09 a.u. and 1.23e+09 a.u. and 1.3e+09 a.u. and 1.32e+09 a.u. and 1.34e+09 a.u.
PC-9; 216 h: 1.81e+09 a.u. and 1.74e+09 a.u. and 1.76e+09 a.u. and 1.85e+09 a.u. and 1.78e+09 a.u. and 1.83e+09 a.u.
A375; 336.52 h: 1.68e+08 a.u. and 1.63e+08 a.u. and 1.69e+08 a.u. and 1.86e+08 a.u. and 1.74e+08 a.u. and 1.95e+08 a.u.
MEL-JUSO; 48.52 h: 1.32e+07 a.u. and 1.06e+07 a.u. and 1.13e+07 a.u. and 1.17e+07 a.u. and 1.29e+07 a.u. and 1.23e+07 a.u.
KP-4; 30 h: 1.13e+07 a.u. and 1.17e+07 a.u. and 1.65e+07 a.u. and 1.26e+07 a.u. and 1.42e+07 a.u. and 1.2e+07 a.u.
MEL-JUSO; 408.52 h: 7.26e+07 a.u. and 2.99e+07 a.u. and 3.75e+07 a.u. and 4.26e+07 a.u. and 3.7e+07 a.u. and 3.68e+07 a.u.
A375; 54.52 h: 2.85e+07 a.u. and 2.87e+07 a.u. and 3.11e+07 a.u. and 3e+07 a.u. and 3.32e+07 a.u. and 2.18e+07 a.u.
NCI-H1437; 114 h: 2.61e+07 a.u. and 2.66e+07 a.u. and 2.81e+07 a.u. and 2.53e+07 a.u. and 2.48e+07 a.u. and 3.16e+07 a.u.
MEL-JUSO; 426.52 h: 7.56e+07 a.u. and 2.9e+07 a.u. and 3.15e+07 a.u. and 2.81e+07 a.u. and 2.82e+07 a.u. and 5.14e+07 a.u.
MEL-JUSO; 504.52 h: 7.82e+07 a.u. and 1.68e+07 a.u. and 2.53e+07 a.u. and 5.72e+07 a.u. and 3.24e+07 a.u. and 2.72e+07 a.u.
MEL-JUSO; 480.52 h: 2.32e+07 a.u. and 7.28e+07 a.u. and 1.71e+07 a.u. and 5.19e+07 a.u. and 2.79e+07 a.u. and 2.92e+07 a.u.
MEL-JUSO; 414.52 h: 3.22e+07 a.u. and 4.49e+07 a.u. and 2.57e+07 a.u. and 3.15e+07 a.u. and 4e+07 a.u. and 7.45e+07 a.u.

Repeated from above (sample 3):
CN(C)c1ccc2c(c1)C(c1ccccc1)CC2=O (stereo not shown): 0.884%
Cc1ccc(S(=O)(=O)N2CCCC(C(=O)Nc3ccc4c(c3)OCCO4)C2)cc1 (stereo not shown): 65%
CCCc1c(C)[nH]c2[nH]n(-c3ccccc3)c(=O)c2c1=O: 79.3%
CS(=O)(=O)NCCOc1ccccc1-c1ccccc1: > 99%
COCCNC(=O)NC1(c2nc(C)no2)CCCCC1: 86.8%
COc1ccccc1NC(=O)C1c2ccccc2Oc2ccccc21: 25%
CN1N=C(c2ccc(-n3cncn3)cc2)CC1c1cnn(C)c1 (stereo not shown): 96.9%
NC(=O)Cc1csc(NC(=O)CCNC2=NS(=O)(=O)c3ccccc32)n1: 83%
O=C(C1CC(=O)N(C2CCCC2)C1)N1CCC(c2nnc3n2CCNC3)CC1 (stereo not shown): 72.1%
Cc1cc(C#N)cc(C(=O)c2c(C(C)C)c(=O)[nH]c(=O)n2Cc2cc(F)nc(OCCOCc3ccccc3)c2)c1: 0.842%
COc1cccc2c1Oc1ccsc1C=C2C#N: 80%
